Assay results from different studies.
Protocols differ between the studies behind these lines. Several values in a cell are separate wells, animals, samples, runs or records. ± gives the spread as reported.
Trypanothione synthetase: Trypanothione synthetase (Trypanosoma brucei, UniProt Q586P2)
MAPK8: Mitogen-activated protein kinase 8 (MAPK8, Homo sapiens, UniProt P45983)

SMILES | target | test | system | setting | IC50
COc1cc(N2CCN(C)CC2)ccc1Nc1ncc2c(n1)N(C)c1ccc(C)cc1C(=O)N2CC(F)(F)F | DCLK1 (Homo sapiens, UniProt O15075) | enzyme activity, inhibitor, radiometric | – | – | > 10000 nM
Cc1ccc([N+](=O)[O-])cc1S(=O)(=O)N(C)/N=C/c1cnc2ccc(Br)cn12 | MAPK11 (Homo sapiens, UniProt Q15759) | enzyme activity, inhibitor, ADP detection | – | – | > 10000 nM
Cc1ccccc1-c1cc(N2CCN(Cc3ccccc3)CC2)ccc1N(C)C(=O)C(C)(C)c1cc(C(F)(F)F)cc(C(F)(F)F)c1 | TACR1 (Homo sapiens, UniProt P25103) | IP1 accumulation, antagonist | – | 90 min, with: substance P 10 nM | 91 nM
C=CCC(=N)NCCC[C@H](N)C(=O)O | Nos3 (Mus musculus, UniProt P70313) | ACh-evoked cGMP accumulation | adult mouse aortic rings | 1 min, preincubation 25 min, with: ACh 10 µM, IBMX 1 mM | 1000 to 2000 nM and 1900 nM
O=C1C(=NN=c2[nH]ccs2)c2cc(Cl)ccc2N1CCn1ncc2c(=O)[nH]cnc21 | Cyclin-dependent kinase 6, with cyclin D3 (CDK6, Homo sapiens, UniProt Q00534) | enzyme activity, inhibitor, ADP detection | – | – | 123 nM
CCCCCCCCCCCCCCCCCC(=O)OCC(O)COC1OC(CS(=O)(=O)O)C(O)C(O)C1O (centres unmarked) | DNA polymerase (POLA1, Bos taurus, UniProt A0AAA9TD94) | enzyme activity, inhibitor, radiometric | – | – | 1600 nM and 2100 nM
CC(=O)Nc1ccc(S(=O)(=O)NCc2nc(-c3ccccc3)no2)cc1 | Trypanothione synthetase | enzyme activity, inhibitor | – | – | 5900 nM
O=C(O)c1ccc(Nc2nc(-c3ccc(Cl)c(Cl)c3)cs2)cc1 | Capsid scaffolding protein, protease domain (Human herpesvirus 8 type P, UniProt Q2HRB6) | protease activity, inhibitor | – | with: fluorogenic peptide substrate | 6750 nM and 6700 nM
CC(C)(C)S(=O)(=O)Cc1nc(-c2ccc(Cl)c(Cl)c2)cs1 | Trypanothione synthetase | enzyme activity, inhibitor | – | – | 2500 nM
Cc1cc(NC(=O)c2cccc(-n3cc(NC(=O)Nc4ccc(Cl)cc4)cn3)c2)ccn1 | MAPK8 | enzyme activity, inhibitor, TR-FRET | – | – | 1510 nM
CN1C(=O)[C@H](Cc2ccc(F)cc2)NC(=O)[C@H](CC2CCCCC2)NC(=O)/C=C\C(=O)N[C@H](C(=O)O)CCNC(=O)[C@@H]1CCCNC(=O)c1cnccn1 | Proto-oncogene tyrosine-protein kinase Src, SH3-SH2-kinase domain (SRC, Gallus gallus, UniProt P00523) | enzyme activity, inhibitor, Z'-LYTE FRET | – | Src residues 83-533, with: 50 µM ATP | 3000 ± 510 nM
C/C(=N\NC(N)=S)c1ccc2c(c1)sc1nc(=O)c(C#N)cn12 | DNA gyrase (gyrA/gyrB, Escherichia coli, UniProt P0AES4+P0AES6) | enzyme activity, inhibitor | – | – | 2620 nM
Cc1ccc2nc(NN)n(Cc3ccccc3)c(=O)c2c1 | Genome polyprotein, protease (Hepatitis C virus genotype 1b, UniProt O92972) | enzyme activity, inhibitor, FRET | – | – | 29600 nM
CC[C@H](C)[C@H](NC(=O)[C@H](CCCCN)NC(=O)[C@H](CC(C)C)NC(=O)[C@H](CCCCN)NC(=O)[C@H](Cc1c[nH]cn1)NC(=O)[C@H](CCC(=O)O)NC(=O)[C@H](CCCCN)NC(=O)[C@H](CCCCN)NC(=O)[C@H](CCCNC(=N)N)NC(=O)[C@@H](NC(=O)[C@H](CCC(N)=O)NC(=O)[C@H](CCCCN)NC(=O)[C@H](C)NC(=O)[C@@H](N)Cc1ccc(O)cc1)C(C)C)C(=O)N[C@H](C(=O)N1CCC[C@H]1C(=O)O)[C@@H](C)O | MAPK8 | kinase activity, inhibitor, SOX fluorogenic | – | pH 7.5, with: ATP 1 mM | > 100000 nM

Excerpt of the above:
SMILES | target | test | system | setting | IC50
O=C1C(=NN=c2[nH]ccs2)c2cc(Cl)ccc2N1CCn1ncc2c(=O)[nH]cnc21 | Cyclin-dependent kinase 6, with cyclin D3 (CDK6, Homo sapiens, UniProt Q00534) | enzyme activity, inhibitor, ADP detection | – | – | 123 nM
